Published values of several laboratories.
Lines come from different studies, so protocols differ. Values joined by “and” are separate records of one study, mostly repeats; a detail may differ. ± gives the spread as reported.

Structure (SMILES)	cell line	assay	test system	conditions	how to read	quantity	result
Nc1ncnc2c1ncn2[C@@H]1O[C@@H]2COP(=O)(O)O[C@H]3[C@@H](O)[C@H](n4cnc5c(=O)[nH]cnc54)O[C@@H]3COP(=O)(O)O[C@H]2[C@H]1O	HFF-1	RNA sequencing, item: Reactome R-HSA-2187338		downregulated pathway	reference: Zika virus alone	pathway fold enrichment	5.88
[CH3][Hg][Cl]	LUHMES MT1G-HiBiT G3	item: MT1G		4 µM, 8 h	reference: DMSO, maximum	luciferase activity	21 fold
OC1CCN(c2ccc(/C=N/NC(=S)Nc3ccc(Br)cc3)cc2)CC1	BEAS-2B and A549	MTT			reference: IC50 BEAS-2B over IC50 A549	selectivity ratio	10.7
Oc1cc(Cl)ccc1Oc1ccc(Cl)cc1Cl	HepG2	extracellular flux, item: reserve respiratory capacity		24 h, representative mode		point of departure	1.23 µM
Cc1nn(-c2nc3ccc(Cl)c(Cl)c3[nH]2)c(O)c1C1OC(=O)c2ccccc21 (centres unmarked)	RAW-ISG	CCK-8		3 µM		viability	106% and 100% and 107% and 101% and 103%
CC1=C2C(=C[C@@](C)(CO)[C@@H]2O)C(=O)[C@](C)(O)C12CC2	RPE-1 hTERT TP53-/- cells	cell viability				LD20	1.4 ng/mL
CC(C)C[C@@H]1NC(=O)[C@@H]2CSSC[C@@H](C(=O)NCC(N)=O)NC(=O)[C@H](Cc3ccccc3)NC(=O)CNC(=O)[C@H](CC(N)=O)NC(=O)[C@@H]3CCCN3C(=O)CNC(=O)[C@@H]3CSSC[C@H](NC(=O)[C@H]([C@@H](C)O)NC(=O)[C@H](CC(C)C)NC(=O)[C@@H]4CCCN4C(=O)[C@@H]4CCCN4C(=O)[C@H](CC(N)=O)NC(=O)[C@H](CC(=O)O)NC(=O)CNC(=O)[C@H](CCCNC(=N)N)NC(=O)[C@@H]4CCCN4C(=O)[C@H](CCCNC(=N)N)NC(=O)[C@@H]4CCCN4C(=O)[C@@H](NC(=O)CN)CSSC[C@H](NC(=O)CNC(=O)[C@H](C)NC1=O)C(=O)N[C@@H](C(C)C)C(=O)N3)C(=O)N[C@@H](CCCN=[N+]=[N-])C(=O)N[C@@H](CCC(N)=O)C(=O)N[C@@H](CC(=O)O)C(=O)N[C@@H](CO)C(=O)N[C@@H](CC(=O)O)C(=O)N2	U-87 MG	cell proliferation, CCK-8		4 d	reference: untreated	ED50	> 1000 nM
Cc1cc(C(C)(C)c2ccc(O)c(C)c2)ccc1O	HepG2 spheroids	Hoechst flow cytometry		0.01 µM, 96 h		S phase cells	8.76 ± 2.99%
COc1c(CCC[P+](c2ccccc2)(c2ccccc2)c2ccccc2)cc2c(c1OC)OCO2.[I-]	KM12	SRB				GI50	-6.19 log M
C/C=C(/C)C(=O)O[C@H]1C(C)=C2[C@H]([C@@H]1OC(=O)CCCCCCC)[C@@](C)(OC(C)=O)C[C@H](OC(=O)CCC)[C@@]1(O)[C@H]2OC(=O)[C@@]1(C)O	HEK293T	RNA-seq, item: TRIB3 mRNA		10 µM, 6 h	reference: vehicle	log2 fold change	3.37
CCCCC/C=C\C/C=C\C/C=C\C/C=C\CCCC(=O)NCCO	ReNcell VM	YO-PRO-1 staining		24 h		concentration increasing apoptotic cells	≤ 0.48 µM
CN(C)C(=O)c1cc2cnc(Nc3ccc(N4CCNCC4)cn3)nc2n1C1CCCC1	patient-derived GBM lines	cell viability		72 h		EC50	1000 to 2800 nM
COc1cc(CCC[P+](c2ccccc2)(c2ccccc2)c2ccccc2)c(OC)c2c1OCO2.[I-]	TK-10	SRB				TGI	-4.63 log M
Cc1sc2c(c1C)C(c1ccc(Cl)cc1)=N[C@@H](CC(=O)OC(C)(C)C)c1nnc(C)n1-2	iCas9-MOLM-13 sgGFP	RNA-seq, item: CPNE7		50 nM, 24 h	reference: DMSO	log2 fold change	-1.14
CCCC(=O)O[C@H]1C[C@H]2C[C@@H](O)C[C@@H](C[C@@H](C)/C=C/C=C\C[C@@H]3O[C@@H](C[C@@H]3C)[C@@H](O)C[C@@H]3OC(=O)[C@]1(O)[C@@H]3O)O2	NCI-H292	XF-24 extracellular flux		1 µM		basal oxygen consumption rate	no effect
CN1CCc2[nH]c(-c3ccnc(NC(=O)[C@@H](CC(F)F)c4ccc(F)cc4)c3)c(Nc3ccccc3)c2C1=O	MOLM-13	mRNA level, RNA-seq, item: TRIB3		200 nM, 24 h	reference: DMSO	log2 fold change	-3.31

Structure (SMILES)	cell line	assay	test system	conditions	how to read	quantity	result
CN1CCN(C2(CNC3CCN(c4cccc(-c5cc6cc(F)ccc6[nH]5)c4)CC3)CCC2)CC1	KM12					GI50	1420 nM
O=S(=O)(c1ccc(O)cc1)c1ccc(O)cc1	HepG2 spheroids	Hoechst flow cytometry		10 µM, 24 h		G1 phase cells	72.8 ± 4.03%
COc1ccc2c(c1)[nH]c1c(C)nccc12	DU-145	bisulfite pyrosequencing, item: RASSF1A promoter CpG site 4		10 µM, 16 h		DNA methylation	80.8%
C=CCN1C[C@H](C)N([C@@H](c2cccc(O)c2)c2cccc(C(=O)N(C)c3cccc(F)c3)c2)C[C@H]1C	HEK293T ATF4-FLuc reporter	ATF4 reporter gene, activator, luciferase reporter				EC50	> 9960 nM
OCC(Br)(Br)Br	THP-1	pyroptotic LDH release		2 µM, 40 min, added: LPS then nigericin		inhibition	-7.17%
CC(c1ccccc1)(c1ccc(O)cc1)c1ccc(O)cc1	HepG2 spheroids	Hoechst flow cytometry		1 µM, 24 h		G2 phase cells	19.4 ± 2.18%
CC1(C)O[C@@H]1COc1c2occc2cc2ccc(=O)oc12	THP-1	pyroptotic LDH release		2 µM, 40 min, added: LPS then nigericin		inhibition	-7.81%
C#Cc1cccc(Nc2ncnc3cc(OCCOC)c(OCCOC)cc23)c1	SK-BR-3	MTT				sublethal dose	2 µM
CCCC[C@@H]1NC(=O)[C@H](Cc2ccc(O)cc2)NC(=O)[C@@H]2CCCN2C(=O)[C@H](CC(=O)O)NC(=O)[C@H](C)NC(=O)[C@H](Cc2ccccc2)NC(=O)[C@@H]2CSCCC(=O)N3CN(CN(C3)C(=O)CCSC[C@@H](C(=O)N[C@@H](CNC(=O)CCc3cn(CCOCCOCCOCCN(CCOCCOCCOCCC(=O)N[C@H]4CSCCC(=O)N5CN6CN(C5)C(=O)CCSC[C@H](NC(=O)[C@@H](CC(=O)O)NC(=O)[C@H](Cc5cccc7ccccc57)NC(=O)[C@@H]5CCCN5C4=O)C(=O)N[C@@H](CCSC)C(=O)N[C@@H](CCCCNC(=N)N)C(=O)N[C@@H](CC(=O)O)C(=O)N[C@@H](Cc4c[nH]c5ccccc45)C(=O)N[C@@H](CO)C(=O)N[C@@H]([C@@H](C)O)C(=O)N4CCC[C@H]4C(=O)N4C[C@H](O)C[C@H]4C(=O)N[C@@H](Cc4c[nH]c5ccccc45)C(=O)N[C@H](C(N)=O)CSCCC6=O)CCOCCOCCOCCn4cc(CCC(=O)NC[C@H](NC(=O)[C@@H]5CSCCC(=O)N6CN7CN(C6)C(=O)CCSC[C@H](NC(=O)[C@H](Cc6ccc(O)cc6)NC(=O)[C@@H]6CCCN6C(=O)[C@@H](C)NC(=O)[C@H](CCC(=O)O)NC(=O)[C@@H]6CCCN6C(=O)[C@H](CC(C)(C)C)NC(=O)[C@@H](NC(C)=O)CSCCC7=O)C(=O)N[C@@H](Cc6ccccc6)C(=O)N[C@@H](C)C(=O)N[C@@H](CC(=O)O)C(=O)N6CCC[C@H]6C(=O)N[C@@H](Cc6ccc(O)cc6)C(=O)N[C@@H](CCCC)C(=O)N5)C(N)=O)nn4)nn3)C(N)=O)NC1=O)C(=O)CCSC[C@H](NC(C)=O)C(=O)N[C@@H](CC(C)(C)C)C(=O)N1CCC[C@H]1C(=O)N[C@@H](CCC(=O)O)C(=O)N[C@H](C)C(=O)N1CCC[C@H]1C(=O)N[C@@H](Cc1ccc(O)cc1)C(=O)N2	human PBMC with HT-1376 coculture	IL-2 secretion		added: anti-CD3		EC50	0.47 ± 0.3 nM
COc1c(C)c2c(c(O)c1C/C=C(\C)CCC(=O)O)C(=O)OC2	MHH-ES-1	cell proliferation	bone cancer			IC50	145 nM
C[C@]12CC[C@H](O)C[C@H]1CC[C@@H]1[C@@H]2CC[C@]2(C)[C@@H](C3=CC(=O)OC3)[C@@H](O)C[C@]12O	human iPSC cardiomyocytes	plate-normalised		concentration not given, hit retest	reference: vehicle controls, SDs below control	MyBP-C level change	10.9 SD
CC(C)N1CCC(NC2CCN(c3cccc(-c4cc5cc(F)ccc5[nH]4)c3)CC2)CC1	COLO 205					CC50	7030 nM
Cc1cnc2ccc3c(nc(N)n3C)c2n1	BALB/c 3T3	colony forming efficiency		0.5 µM		colony number	87 colonies per plate and 101 colonies per plate and 99 colonies per plate
Oc1cc(Cl)ccc1Oc1ccc(Cl)cc1Cl	human iPSC cardiomyocytes	plate-normalised		concentration not given, hit retest	reference: vehicle controls, SDs below control	MyBP-C level change	14.5 SD
C[C@@H]1C[C@@H]([C@H](O)CC2CC(=O)NC(=O)C2)C(=O)[C@@H](C)C1	MDA-MB-231 BAX/BAK siRNA knockdown	cell viability, CellTiter-Glo			direction not given	Z score	-0.597
O=C1CCP(=S)(c2ccccc2)CC1	SW-620	MTT		72 h	reference: IC50 HaCaT over IC50 SW-620	selectivity index	2.2

For quick reference, copied from above:
Structure (SMILES)	cell line	assay	test system	conditions	how to read	quantity	result
COc1ccc2c(c1)[nH]c1c(C)nccc12	DU-145	bisulfite pyrosequencing, item: RASSF1A promoter CpG site 4		10 µM, 16 h		DNA methylation	80.8%
C=CCN1C[C@H](C)N([C@@H](c2cccc(O)c2)c2cccc(C(=O)N(C)c3cccc(F)c3)c2)C[C@H]1C	HEK293T ATF4-FLuc reporter	ATF4 reporter gene, activator, luciferase reporter				EC50	> 9960 nM
OCC(Br)(Br)Br	THP-1	pyroptotic LDH release		2 µM, 40 min, added: LPS then nigericin		inhibition	-7.17%
CC(c1ccccc1)(c1ccc(O)cc1)c1ccc(O)cc1	HepG2 spheroids	Hoechst flow cytometry		1 µM, 24 h		G2 phase cells	19.4 ± 2.18%
